Measurements pooled from the literature.
Protocols differ between the studies behind these lines. “And” joins repeats or separate records; there may be more than shown.
SGK1: Serine/threonine-protein kinase Sgk1 (SGK1, Homo sapiens, UniProt O00141)
SGK1 S422D: Serine/threonine-protein kinase Sgk1 (SGK1, Homo sapiens, UniProt O00141, S422D)

Compound	target	assay	test system	conditions	how to read	endpoint	result
Cc1[nH]nc2c1N=C(c1ccccc1Cl)c1cnc(N3CCOCC3)cc1N2	SGK1	enzyme activity, inhibitor		0.5 µM		inhibition	18.1%
NC(=O)[C@@H](O)C[C@H]1CCc2sc3ncnc(O[C@H]4CC[C@H](N5CCOCC5)CC4)c3c21	SGK1	enzyme activity, inhibitor		10 µM		inhibition	6%
CC(C)=CC1OC(C)(C)C2C=C3C(=O)C(Cl)=CC(O)C3C3C(O)C4OC4C(=O)C132 (centres unmarked)	SGK1	cell-free assay, competition with immobilised ligand		10 µM		remaining binding	67%
CNC1C[S+]2CC[S+]3CC[S+](C1)[Ru-4]321([N]=C=S)[n]2c3ccc(OC)cc3c3c4c(c5cc(F)c[n+]1c5c32)C(=O)NC4=O (centres unmarked)	SGK1	KinomeScan		0.1 µM	baseline: untreated	remaining binding	77%
COCC12C(=O)NC3C4(C(OC)CC1O)C1CC5(O)C(OC)C(O)C(OC(C)=O)(C1C5OC(=O)c1ccccc1)C3(O)C(OC)C24 (centres unmarked)	SGK1	kinase activity, inhibitor, ProQinase kinase profiling		25 µM	baseline: control	remaining activity	110% and 100%
CNC(=O)C[C@H](Cc1ccc(C#N)cc1)NC(=O)c1cc(-c2ccc(CN[C@H](C)c3ccc(C)cc3)o2)ccc1Cl	SGK1	enzyme activity, inhibitor		1 µM		activity vs control	104%
Cc1ccc(C(=O)Nc2ccc(CN3CCN(C)CC3)c(C(F)(F)F)c2)cc1C#Cc1cnc2cccnn12	SGK1	target engagement, NanoBRET	human cells			Hill slope	1.96
Cc1cccc(O[C@H]2CCC[C@@H](C(C)CNCc3ccncc3)C2)c1 (relative stereo)	SGK1	enzyme activity, inhibitor		10 µM		inhibition	-24%
C=CC(=O)Nc1cccc(-c2cnc3[nH]cc(C(=O)NC(C)(C)C)c3n2)c1	SGK1	enzyme activity, inhibitor		0.1 µM		inhibition	5%
Cc1cnc2nc1Nc1cccc(c1)COC/C=C/COCc1cc(ccc1OCCN1CCOCC1)N2	SGK1	binding, competition with immobilised ligand		0.1 µM		remaining binding	83%
O=C(Cc1ccc(OCc2ccccc2)cc1)NC1(C(=O)O)CCN(C(=O)c2ccc(-c3cccc(Cl)c3)cc2)CC1	SGK1	enzyme activity, inhibitor		10 µM		activity vs control	114%
COc1c(Cl)cccc1Nc1c(-c2ccncc2C#C[C@@]2(C)CCCN2C(=O)/C=C/CN(C)C)[nH]c2c1C(=O)NCC2	SGK1	binding, competition with immobilised ligand		3 µM		remaining binding	76%
O=C(O)c1ccc(-c2n[nH]c(=O)o2)cc1	SGK1 S422D			10 µM		inhibition	49.1%
CCn1cc(C(=O)O)c(=O)c2c(N)c(F)c(NC3CCCCC3)cc21	SGK1	kinase activity		0.1 µM, added: ATP at Km		inhibition	1.6%
Cc1cccc(-c2ccc3nc(NC(=O)C4CCCCC4)nn3c2)c1	SGK1 S422D	enzyme activity, Dundee kinase panel		10 µM		remaining activity	105%
C=CC(=O)N1Cc2nc(-c3cc(-c4cc(Cl)cnc4Cl)c(F)cc3F)n(-c3ccncn3)c2C1	SGK1	cell-free assay, inhibitor		1 µM		inhibition	4.8%
c1ccc2c(Nc3cc(C4CCC4)[nH]n3)nc(Nc3ccc4nc[nH]c4c3)nc2c1	SGK1	enzyme activity, inhibitor		0.25 µM		remaining activity	6%
COc1cc(Nc2nccc(-c3cnn4nc(OC)ccc34)n2)cc(C(F)(F)F)c1	SGK1	binding, competition with immobilised ligand		1 µM		remaining binding	92%
CN1CC[C@@H](COc2cnc(C#N)cc2-c2ccn3nc(NC(=O)C4CC4)cc3c2)C1	SGK1	enzyme activity, inhibitor		1 µM		inhibition	-4%
Cc1ccc(C)c(-c2ccc3nc(NC(=O)C4CCCCC4)nn3c2)c1	SGK1 S422D	enzyme activity, Dundee kinase panel		10 µM		remaining activity	96%

Repeated from above:
Compound	target	assay	test system	conditions	how to read	endpoint	result
COc1c(Cl)cccc1Nc1c(-c2ccncc2C#C[C@@]2(C)CCCN2C(=O)/C=C/CN(C)C)[nH]c2c1C(=O)NCC2	SGK1	binding, competition with immobilised ligand		3 µM		remaining binding	76%
O=C(O)c1ccc(-c2n[nH]c(=O)o2)cc1	SGK1 S422D			10 µM		inhibition	49.1%
CCn1cc(C(=O)O)c(=O)c2c(N)c(F)c(NC3CCCCC3)cc21	SGK1	kinase activity		0.1 µM, added: ATP at Km		inhibition	1.6%
